Published values collected from several papers.
A part holds a random share of what one study measured. Values joined by “and” are separate records of one study, mostly repeats; a detail may differ.
UniProt P20794, sequence (whole entry, looked up): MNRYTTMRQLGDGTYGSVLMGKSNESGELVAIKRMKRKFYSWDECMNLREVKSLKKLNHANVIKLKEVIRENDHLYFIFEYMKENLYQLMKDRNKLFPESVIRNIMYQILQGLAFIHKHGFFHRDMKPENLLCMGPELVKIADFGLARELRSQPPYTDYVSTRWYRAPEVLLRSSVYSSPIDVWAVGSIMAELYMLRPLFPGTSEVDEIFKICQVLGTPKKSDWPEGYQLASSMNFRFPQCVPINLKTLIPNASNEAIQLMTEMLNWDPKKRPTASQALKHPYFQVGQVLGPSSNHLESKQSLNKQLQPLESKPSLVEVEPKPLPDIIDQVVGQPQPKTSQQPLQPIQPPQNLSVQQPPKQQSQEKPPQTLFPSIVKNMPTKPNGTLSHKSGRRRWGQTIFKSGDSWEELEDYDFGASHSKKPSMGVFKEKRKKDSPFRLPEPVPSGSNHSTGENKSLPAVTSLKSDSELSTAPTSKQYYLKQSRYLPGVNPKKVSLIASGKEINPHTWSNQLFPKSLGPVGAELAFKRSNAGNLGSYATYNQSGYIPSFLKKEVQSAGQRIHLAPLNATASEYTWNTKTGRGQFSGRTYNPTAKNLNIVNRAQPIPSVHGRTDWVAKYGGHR
UniProt P68400, sequence (whole entry, looked up): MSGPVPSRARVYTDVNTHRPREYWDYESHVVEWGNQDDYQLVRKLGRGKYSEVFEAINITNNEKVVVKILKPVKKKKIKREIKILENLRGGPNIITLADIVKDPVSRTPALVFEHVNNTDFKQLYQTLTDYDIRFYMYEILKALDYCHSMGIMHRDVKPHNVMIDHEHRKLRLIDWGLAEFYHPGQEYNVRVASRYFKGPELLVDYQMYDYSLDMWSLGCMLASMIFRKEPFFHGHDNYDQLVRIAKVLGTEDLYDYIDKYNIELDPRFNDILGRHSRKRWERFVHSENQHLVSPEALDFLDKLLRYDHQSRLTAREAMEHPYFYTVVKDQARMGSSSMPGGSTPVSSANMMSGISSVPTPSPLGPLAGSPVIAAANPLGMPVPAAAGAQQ
UniProt Q6P3R8, sequence (whole entry, looked up): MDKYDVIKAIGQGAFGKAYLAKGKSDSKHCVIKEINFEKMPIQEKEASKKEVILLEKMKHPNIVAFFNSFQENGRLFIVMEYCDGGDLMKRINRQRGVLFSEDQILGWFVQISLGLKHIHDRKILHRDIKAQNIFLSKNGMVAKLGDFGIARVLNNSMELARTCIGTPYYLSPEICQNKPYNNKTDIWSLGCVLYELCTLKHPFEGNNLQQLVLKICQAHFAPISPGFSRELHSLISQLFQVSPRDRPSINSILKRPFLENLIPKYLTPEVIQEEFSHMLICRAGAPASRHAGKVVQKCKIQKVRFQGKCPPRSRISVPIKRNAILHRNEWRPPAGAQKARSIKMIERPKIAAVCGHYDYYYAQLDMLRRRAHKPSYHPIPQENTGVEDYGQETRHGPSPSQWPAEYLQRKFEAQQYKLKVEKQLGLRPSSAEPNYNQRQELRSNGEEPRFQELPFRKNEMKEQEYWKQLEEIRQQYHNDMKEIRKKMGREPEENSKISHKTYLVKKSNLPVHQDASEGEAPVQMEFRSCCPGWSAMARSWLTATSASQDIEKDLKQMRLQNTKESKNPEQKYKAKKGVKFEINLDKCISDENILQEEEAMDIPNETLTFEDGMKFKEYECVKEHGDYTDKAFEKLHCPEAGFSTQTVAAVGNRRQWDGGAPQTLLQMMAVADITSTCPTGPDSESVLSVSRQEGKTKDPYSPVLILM

Series 1 — host: mouse; matrix: microsomes or S9; concentration: 2 µM; time: 0.5 h
Compound | remaining compound
CC(=O)c1c(C)cn(CC(O)CN2CCNCC2)c1C (stereo not drawn) | > 99.9%
CCn1ccc(C(=O)N2CCCN(S(C)(=O)=O)c3ccccc32)n1 | 11.7%
O=C(Nc1ccc(N2CCCS2(=O)=O)cc1)NC1CCCCC1 | 74.7%
Nc1nc(N2CCN(c3ncccn3)CC2)c2nc[nH]c2n1 | 68.6%
Nc1cc(O)nc2nnc(SCc3nnnn3-c3ccc(Cl)c(Cl)c3)n12 | 89.8%
Clc1ccc(-c2csc3ncnc(N4CCCCC4c4ncc[nH]4)c23)cc1 (stereo not drawn) | 0.997%
COc1cc(-c2nc3c(s2)CNCC3)cc(OC)c1OC | 70.8%
CCn1nc(-c2csc(C)n2)nc1-c1ccc2[nH]c(C)nc2c1 | > 100%

Series 2 — observed: enzyme activity; action: inhibitor; concentration: 77 µM; reference: untreated
Target: DNA polymerase theta, ATPase domain (POLQ, Homo sapiens, UniProt O75417)
UniProt O75417, sequence (whole entry, unmodified, looked up): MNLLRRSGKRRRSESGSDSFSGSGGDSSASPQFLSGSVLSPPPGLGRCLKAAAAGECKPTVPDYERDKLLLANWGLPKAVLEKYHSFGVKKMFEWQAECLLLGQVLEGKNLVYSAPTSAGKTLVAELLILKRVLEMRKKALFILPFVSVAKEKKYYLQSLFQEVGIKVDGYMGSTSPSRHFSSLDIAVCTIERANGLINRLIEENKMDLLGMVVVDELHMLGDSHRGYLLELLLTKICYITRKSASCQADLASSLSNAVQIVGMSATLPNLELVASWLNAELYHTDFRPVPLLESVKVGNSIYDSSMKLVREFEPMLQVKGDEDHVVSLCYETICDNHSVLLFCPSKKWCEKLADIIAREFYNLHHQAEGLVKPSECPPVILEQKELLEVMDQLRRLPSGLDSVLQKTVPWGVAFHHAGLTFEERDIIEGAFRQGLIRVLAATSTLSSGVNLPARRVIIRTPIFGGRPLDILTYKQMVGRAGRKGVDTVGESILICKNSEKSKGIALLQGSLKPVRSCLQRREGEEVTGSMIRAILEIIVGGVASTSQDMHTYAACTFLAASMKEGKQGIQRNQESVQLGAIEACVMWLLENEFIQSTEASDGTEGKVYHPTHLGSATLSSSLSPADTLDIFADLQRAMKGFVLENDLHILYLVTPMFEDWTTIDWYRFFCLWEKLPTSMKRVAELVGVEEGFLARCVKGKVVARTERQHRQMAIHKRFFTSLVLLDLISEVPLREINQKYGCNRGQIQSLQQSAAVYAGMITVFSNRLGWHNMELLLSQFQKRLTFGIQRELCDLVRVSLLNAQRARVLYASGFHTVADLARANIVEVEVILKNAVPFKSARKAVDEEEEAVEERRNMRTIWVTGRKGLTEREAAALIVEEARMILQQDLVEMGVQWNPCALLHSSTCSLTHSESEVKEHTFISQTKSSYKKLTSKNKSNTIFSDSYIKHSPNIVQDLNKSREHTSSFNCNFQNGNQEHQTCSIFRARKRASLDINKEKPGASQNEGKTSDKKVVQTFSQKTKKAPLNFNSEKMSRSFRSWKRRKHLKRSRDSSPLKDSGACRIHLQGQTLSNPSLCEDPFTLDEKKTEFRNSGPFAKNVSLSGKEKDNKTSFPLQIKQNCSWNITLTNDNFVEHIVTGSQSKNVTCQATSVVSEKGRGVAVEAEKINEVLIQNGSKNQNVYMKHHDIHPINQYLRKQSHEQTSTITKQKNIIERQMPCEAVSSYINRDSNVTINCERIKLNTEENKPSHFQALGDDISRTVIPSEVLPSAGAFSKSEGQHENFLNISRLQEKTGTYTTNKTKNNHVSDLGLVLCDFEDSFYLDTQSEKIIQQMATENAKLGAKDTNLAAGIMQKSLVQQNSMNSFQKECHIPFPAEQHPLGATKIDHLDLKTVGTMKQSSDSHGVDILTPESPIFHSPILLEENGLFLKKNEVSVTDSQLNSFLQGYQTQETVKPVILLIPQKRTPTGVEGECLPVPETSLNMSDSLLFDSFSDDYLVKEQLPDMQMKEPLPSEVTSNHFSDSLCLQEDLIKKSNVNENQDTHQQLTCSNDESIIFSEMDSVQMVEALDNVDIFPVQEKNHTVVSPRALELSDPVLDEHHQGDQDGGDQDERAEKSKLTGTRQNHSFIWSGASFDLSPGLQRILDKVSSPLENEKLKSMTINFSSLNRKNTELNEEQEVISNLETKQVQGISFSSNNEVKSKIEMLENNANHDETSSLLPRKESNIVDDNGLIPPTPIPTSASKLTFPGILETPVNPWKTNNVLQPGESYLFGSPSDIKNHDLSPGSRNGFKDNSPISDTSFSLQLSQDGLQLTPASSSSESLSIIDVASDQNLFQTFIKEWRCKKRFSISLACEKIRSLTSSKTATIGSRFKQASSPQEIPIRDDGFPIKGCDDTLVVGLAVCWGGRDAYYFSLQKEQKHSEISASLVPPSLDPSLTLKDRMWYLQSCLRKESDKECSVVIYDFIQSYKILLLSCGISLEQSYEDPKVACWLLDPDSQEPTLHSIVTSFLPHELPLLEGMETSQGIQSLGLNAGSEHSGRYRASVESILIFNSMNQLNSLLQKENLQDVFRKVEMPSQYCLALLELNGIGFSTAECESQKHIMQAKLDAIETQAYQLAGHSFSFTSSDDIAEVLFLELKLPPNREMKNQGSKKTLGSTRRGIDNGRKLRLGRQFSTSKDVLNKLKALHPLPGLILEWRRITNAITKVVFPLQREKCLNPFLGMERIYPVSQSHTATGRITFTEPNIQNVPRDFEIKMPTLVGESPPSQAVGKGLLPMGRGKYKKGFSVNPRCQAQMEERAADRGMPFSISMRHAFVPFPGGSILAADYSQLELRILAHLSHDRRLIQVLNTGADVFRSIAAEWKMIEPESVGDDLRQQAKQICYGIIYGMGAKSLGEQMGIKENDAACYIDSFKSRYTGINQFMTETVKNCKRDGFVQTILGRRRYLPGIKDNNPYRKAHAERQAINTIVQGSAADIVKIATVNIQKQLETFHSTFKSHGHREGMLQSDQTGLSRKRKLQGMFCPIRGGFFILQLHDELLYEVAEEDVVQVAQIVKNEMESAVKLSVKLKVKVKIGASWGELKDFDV
SMILES | remaining activity
COc1ccc(C(Cl)=C(c2ccc(OC)cc2)c2ccc(OC)cc2)cc1 | 103%
Cc1ccc(C(=O)c2ccc(CC(=O)O)n2C)cc1 | 101%
CCCCCCCCc1ccc(CCC(N)(CO)CO)cc1 | 110%
C=CCNC(N)=S | 101%
C[C@@H]1O[C@@H](O[C@H]2[C@H](Oc3cc(O)c(C(=O)CCc4ccc(O)cc4)c(O)c3)O[C@H](CO)[C@@H](O)[C@@H]2O)[C@H](O)[C@H](O)[C@H]1O | 85.1%
CN(C)C(=O)Oc1ccc[n+](C)c1 | 95.5% and 104%

Series 3 — observed: cell-free assay; technique: competition with immobilised ligand; concentration: 0.1 µM
SMILES: Cc1cc(C)c(-n2ccn3nc(-c4cccnc4)cc23)cc1NC(=O)c1cc(C#N)cc(S(F)(F)(F)(F)F)c1
target | remaining binding
TEK (Homo sapiens, UniProt Q02763) | 3.1%
CSNK1G3 (Homo sapiens, UniProt Q9Y6M4) | 93.7%
eIF-2-alpha kinase GCN2, C-terminal kinase domain (EIF2AK4, Homo sapiens, UniProt Q9P2K8, S808G) | 100%
MAK (Homo sapiens, UniProt P20794) | 77.2%
Tyrosine-protein kinase JAK3, JH1 (JAK3, Homo sapiens, UniProt P52333) | 95.3%
TSSK1B (Homo sapiens, UniProt Q9BXA7) | 100%
MAP4K4 (Homo sapiens, UniProt O95819) | 95.1%
MERTK (Homo sapiens, UniProt Q12866) | 83.6%
SIK2 (Homo sapiens, UniProt Q9H0K1) | 94.2%
PRKD3 (Homo sapiens, UniProt O94806) | 97%
WNK4 (Homo sapiens, UniProt Q96J92) | 100%
INSRR (Homo sapiens, UniProt P14616) | 91.8%
KIT (Homo sapiens, UniProt P10721, D816V) | 98.8%
Insulin receptor (INSR, Homo sapiens, UniProt P06213) | 69%
Tyrosine-protein kinase ABL1, phosphorylated (ABL1, Homo sapiens, UniProt P00519, T315I) | 83.8%
EPHB6 (Homo sapiens, UniProt O15197) | 3%
Tyrosine-protein kinase ABL1, phosphorylated (ABL1, Homo sapiens, UniProt P00519, H396P) | 87.5%
Aurora kinase A (AURKA, Homo sapiens, UniProt O14965) | 75.9%
MAP3K15 (Homo sapiens, UniProt Q6ZN16) | 48.8%
NEK5 (Homo sapiens, UniProt Q6P3R8) | 87.8%
CSNK2A1 (Homo sapiens, UniProt P68400) | 74.2%
Aurora kinase B (AURKB, Homo sapiens, UniProt Q96GD4) | 98.8%
ANKK1 (Homo sapiens, UniProt Q8NFD2) | 84.5%
CLK3 (Homo sapiens, UniProt P49761) | 87.7%

Series 4 — action: inhibitor; concentration: 1 µM
SMILES: CO[C@@H]1[C@H](N(C)C(=O)c2ccccc2)C[C@H]2O[C@]1(C)n1c3ccccc3c3c4c(c5c6ccccc6n2c5c31)C(=O)NC4
target | observed | inhibition [%]
CAMK2D (Homo sapiens, UniProt Q13557) | enzyme activity | 96
MAP3K11 (Homo sapiens, UniProt Q16584) | enzyme activity | 94
MAK (Homo sapiens, UniProt P20794) | enzyme activity | 4
CDK19 (Homo sapiens, UniProt Q9BWU1) | – | 20
PRKX (Homo sapiens, UniProt P51817) | enzyme activity | 66
Ribosomal protein S6 kinase alpha-1, kinase domain 2 (RPS6KA1, Homo sapiens, UniProt Q15418) | – | 0
VRK2 (Homo sapiens, UniProt Q86Y07) | enzyme activity | 32

Series 5 — observed: enzyme activity; action: inhibitor; concentration: 10 µM
Target: Calcium/calmodulin-dependent protein kinase type II subunit alpha (CAMK2A, Homo sapiens, UniProt Q9UQM7)
UniProt Q9UQM7, sequence (whole entry, looked up): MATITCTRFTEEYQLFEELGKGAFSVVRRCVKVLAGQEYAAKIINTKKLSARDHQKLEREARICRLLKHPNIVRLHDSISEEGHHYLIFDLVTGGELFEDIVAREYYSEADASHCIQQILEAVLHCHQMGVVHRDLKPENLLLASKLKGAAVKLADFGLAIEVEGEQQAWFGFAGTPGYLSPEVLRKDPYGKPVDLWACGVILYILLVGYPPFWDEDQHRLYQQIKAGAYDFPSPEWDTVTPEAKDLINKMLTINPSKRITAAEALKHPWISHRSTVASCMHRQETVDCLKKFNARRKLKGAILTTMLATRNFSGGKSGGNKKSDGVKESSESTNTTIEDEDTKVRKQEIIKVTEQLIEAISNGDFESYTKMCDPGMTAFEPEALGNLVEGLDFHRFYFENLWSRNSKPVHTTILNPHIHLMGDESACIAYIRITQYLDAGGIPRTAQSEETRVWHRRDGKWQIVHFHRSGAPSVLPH
SMILES | inhibition [%]
c1ccc(Cc2nc3ccccc3[nH]2)cc1 | -14
C[C@]12CC[C@@H](O)C[C@H]1CC[C@@H]1[C@@H]2C(=O)C[C@@]2(C)[C@H]1CC[C@]2(O)C(=O)CO | 9
CCCCCCCCCCCCCCCCCCCCCCCCC(=O)O | -6
CC(C)(O)[C@@H]1Cc2c(ccc3ccc(=O)oc23)O1 | 6
CC12CCC(C1)C(C)(C)C2O (stereo not drawn) | -33
COc1ccc(CCO[C@@H]2O[C@H](CO[C@@H]3OC[C@H](O)[C@H](O)[C@H]3O)[C@@H](OC(=O)/C=C/c3ccc(O)c(OC)c3)[C@H](O[C@@H]3O[C@@H](C)[C@H](O)[C@@H](O)[C@H]3O)[C@H]2O)cc1O | -69
CC(=O)OCC(=O)[C@@]12OC(C)(C)O[C@@H]1C[C@H]1[C@@H]3C[C@H](F)C4=CC(=O)C=C[C@]4(C)[C@@]3(F)[C@@H](O)C[C@@]12C | -7
CC1(C)CC[C@]2(C)CC[C@]3(C)C(=CC[C@@H]4[C@@]5(C)CC[C@@H](O)[C@](C)(C(=O)O)[C@@H]5CC[C@]43C)[C@@H]2C1 | -18
CC(C)C[C@@H](NC(=O)[C@@H](Cc1ccccc1)NC(=O)[C@H](N)Cc1ccccc1)C(=O)N[C@H](CCCCN)C(=O)N1CCC(N)(C(=O)O)CC1 | -12

Excerpt of the above (series 1):
Compound | remaining compound
CC(=O)c1c(C)cn(CC(O)CN2CCNCC2)c1C (stereo not drawn) | > 99.9%
Nc1nc(N2CCN(c3ncccn3)CC2)c2nc[nH]c2n1 | 68.6%
Clc1ccc(-c2csc3ncnc(N4CCCCC4c4ncc[nH]4)c23)cc1 (stereo not drawn) | 0.997%
O=C(Nc1ccc(N2CCCS2(=O)=O)cc1)NC1CCCCC1 | 74.7%
Nc1cc(O)nc2nnc(SCc3nnnn3-c3ccc(Cl)c(Cl)c3)n12 | 89.8%
